Assay results collected from several papers.
Each line is one published result; not all experiments were run side by side. Numbers after ± are the reported error.
Target: calf thymus DNA

For `CCCNCC(=O)O`, “bimolecular quenching rate constant” read 4.2e+10 M⁻¹ s⁻¹ (ethidium bromide displacement fluorescence; room temperature).
Under “number of binding sites”, `Cc1c(C)c(C)[c-](C)c1C.[C-]#[O+].[C-]#[O+].[C-]#[O+].[Cl-].[Cl-].[Cl-].[Ir+3].[Re+].c1cnc(-c2ncccn2)nc1` is recorded as 0.97 (concentration not given).
The delta Tm of `CCN(CC)CCCC(C)Nc1cc[n+]([Ru-]([Cl])[Cl])c2cc(Cl)ccc12.Cc1ccc(C(C)C)cc1` (stereo not shown) is reported as 4 °C (thermal denaturation; 0.5 equivalents per DNA, 1 h, pH 7.39, 25 °C, 50 mM NaClO4).
With `[C-]#[O+].[C-]#[O+].[C-]#[O+].[C-]#[O+].[C-]#[O+].[C-]#[O+].[Cl-].[Cl-].[Re+].[Re+].c1cnc(-c2ncccn2)nc1` the Stern-Volmer constant was 23000 M⁻¹ (ethidium bromide displacement).
With `CCN(CC)CCCC(C)Nc1cc[n+]([Ru-]([OH2+])[OH2+])c2cc(Cl)ccc12.Cc1ccc(C(C)C)cc1.F[B-](F)(F)F.F[B-](F)(F)F` (stereo not shown) the delta Tm was 2.9 °C (thermal denaturation; 0.5 equivalents per DNA, 1 h, pH 7.39, 25 °C, 50 mM NaClO4).
With `CCCCCC(C)NCC(=O)O` (stereo not shown) the Stern-Volmer constant was 280 M⁻¹ (ethidium bromide displacement fluorescence; room temperature).
With `Cc1ccc(C(C)C)cc1.[Cl-].[Cl][Ru+].[Ru+].c1ccc(-c2cn(CCCCOc3ccccc3-c3nc4ccccc4s3)nn2)nc1` the Stern-Volmer constant was 10000 M⁻¹ (ethidium bromide displacement).
For `O=C1Nc2ccccc2C1=NN=Cc1ccc(F)cc1`, “apparent binding constant” read 20300 M⁻¹ (UV-Vis titration; pH 7.2, 298 K).
For `COC(=O)c1cnc(-c2cnccn2)cc1C(=O)OC.COC(=O)c1cnc(-c2cnccn2)cc1C(=O)OC.[Cl-].[Cl-].[Cl-].[Cl-].[Cu+2].[Cu+2]`, the Stern-Volmer constant was 1670 ± 10 M⁻¹ (ethidium bromide displacement; pH 7.4).
`NC1=N[N+](=Cc2c3ccccc3cc3ccccc23)[Ga-3]23([S]1)([S]C(N)=N[N+]2=Cc1c2ccccc2cc2ccccc12)[S]C(N)=N[N+]3=Cc1c2ccccc2cc2ccccc12` has a hypochromism of about 15% (absorbance titration; concentration not given, band at 254 nm).

Repeated from above:
For `COC(=O)c1cnc(-c2cnccn2)cc1C(=O)OC.COC(=O)c1cnc(-c2cnccn2)cc1C(=O)OC.[Cl-].[Cl-].[Cl-].[Cl-].[Cu+2].[Cu+2]`, the Stern-Volmer constant was 1670 ± 10 M⁻¹ (ethidium bromide displacement; pH 7.4).
